Experimental data of several laboratories.
A part holds a random share of what one study measured. Changes are numbered by the printed parent chain. ± gives the spread as reported.

Series 1
Target: icaR full length assumed (Staphylococcus epidermidis, UniProt Q5HKQ1)
Technique: EMSA
Form: double-stranded DNA, one strand shown
Library: dsDNA
Residues (chain): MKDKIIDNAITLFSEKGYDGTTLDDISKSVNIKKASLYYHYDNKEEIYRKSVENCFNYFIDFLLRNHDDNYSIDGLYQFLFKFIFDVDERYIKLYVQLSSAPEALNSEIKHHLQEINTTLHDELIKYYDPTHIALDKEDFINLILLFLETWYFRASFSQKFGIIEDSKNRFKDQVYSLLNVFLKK
Under binding, `TTCACCTACCTTTCGAAAGGTAGGTGAA` is recorded as “binds”.
`CACCTACCTTTCGAAAGGTAGGTG` — result for binding: “binds”.
For `ACTAACGAAAGGTAGGTGAAAAAATGCA`, binding read “binds”.

Further values, each from its own experiment
mwoIR full length assumed S310E: mwoIR full length assumed S310E (Methanothermobacter wolfeii, UniProt O59646)
UniProt O59646, sequence (whole entry, unmodified, looked up): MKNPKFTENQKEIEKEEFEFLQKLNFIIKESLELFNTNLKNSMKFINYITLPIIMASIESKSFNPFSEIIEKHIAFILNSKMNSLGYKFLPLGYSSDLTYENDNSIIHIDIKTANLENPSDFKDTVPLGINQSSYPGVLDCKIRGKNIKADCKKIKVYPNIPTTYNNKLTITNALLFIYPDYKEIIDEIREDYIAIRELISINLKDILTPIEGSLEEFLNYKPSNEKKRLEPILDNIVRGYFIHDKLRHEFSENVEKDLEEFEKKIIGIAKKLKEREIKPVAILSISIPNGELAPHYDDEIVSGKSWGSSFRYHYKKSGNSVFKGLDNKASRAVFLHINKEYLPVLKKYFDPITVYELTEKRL
mwoIR full length assumed: mwoIR full length assumed (Methanothermobacter wolfeii, UniProt O59646)
P1: Cdh11 EC1-EC2 (Mus musculus); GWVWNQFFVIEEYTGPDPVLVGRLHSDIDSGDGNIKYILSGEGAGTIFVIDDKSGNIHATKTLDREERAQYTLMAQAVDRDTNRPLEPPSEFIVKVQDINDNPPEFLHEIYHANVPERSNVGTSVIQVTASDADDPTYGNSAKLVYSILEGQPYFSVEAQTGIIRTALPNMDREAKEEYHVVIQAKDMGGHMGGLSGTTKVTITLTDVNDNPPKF
`GACAGTGCCATCTCGGCGACAGT (dsDNA)` has a Kd of 17.8 ± 1.7 nM (mwoIR full length assumed S310E; filter binding; double-stranded DNA, one strand shown; together with: Ca2+ 10 mM).
For `CGTAATCTGCAGGCATGGTCAATTT (ssDNA)`, binding read “no binding” (gene 4 protein primase domain, 1-271 K122A (Escherichia phage T7, UniProt P03692); SPR; single-stranded DNA).
`GACAGTGCTATCTCAGCGACAGT (dsDNA)` has a Kd of 0.0069 ± 0.00093 nM (mwoIR full length assumed; filter binding; double-stranded DNA, one strand shown; together with: Ca2+ 10 mM).
For `P1 W4A`, the SPR response was 10 RU (cadherin-11 adhesive fragment (Mus musculus); SPR; read off a plot, together with: Ca2+; higher = more binding).
The Kd of `GACAGTGCAATCTCTGCGACAGT (dsDNA)` is reported as 0.00595 ± 0.00061 nM (mwoIR full length assumed; filter binding; double-stranded DNA, one strand shown; together with: Ca2+ 10 mM).
The Kd of `GACAGTGCGATCTCCGCGACAGT (dsDNA)` is reported as 0.0277 ± 0.0026 nM (mwoIR full length assumed S310E; filter binding; double-stranded DNA, one strand shown; together with: Ca2+ 10 mM).

Repeated from above (further values, each from its own experiment):
For `CGTAATCTGCAGGCATGGTCAATTT (ssDNA)`, binding read “no binding” (gene 4 protein primase domain, 1-271 K122A (Escherichia phage T7, UniProt P03692); SPR; single-stranded DNA).
